Assay results pooled from the literature.
Compare with care: the assays were run in different laboratories. ± gives the spread as reported.
Organism: Plasmodium falciparum

COc1ccc(-c2cn(C3CCCC3)c3ncnc(N)c23)cc1 has an IC50 of 9800 nM (merozoite invasion of erythrocytes; FVO).
With COC1=CC(c2ccc[nH]2)=NC1=CNC12CC3CC(CC(C3)C1)C2 the IC50 was 2.6 nM (parasite growth; Dd2, chloroquine-resistant).
With c1cncc(CCCOCCCCCCCCCCCCOC2CCCCO2)c1 (stereo not shown) the IC50 was 8900 ± 400 nM (anti-HRPII ELISA; W2 chloroquine-resistant; 72 h).
With CC[C@H](C)[C@@H]1NC(=O)[C@H](CCCCN)NC(=O)[C@H](CCCCN)NC(=O)[C@H](Cc2ccc(O)cc2)NC(=O)[C@H](CC(C)C)NC(=O)[C@@H]2CCCN2C(=O)[C@H](C)NC(=O)CNC(=O)CNC(=O)[C@H](CO)NC(=O)CNC(=O)CNC(=O)[C@H](CO)NC(=O)[C@H](CCC(=O)O)NC(=O)[C@H](CC(C)C)NC(=O)[C@H](CC(C)C)NC(=O)[C@H](CCCCN)NC(=O)[C@H](CCCNC(=N)N)NC(=O)[C@H]([C@@H](C)CC)NC(=O)[C@H]([C@@H](C)CC)NC(=O)[C@H](CCCCN)NC(=O)[C@H](CCCCN)NC(=O)[C@H](Cc2ccc(O)cc2)NC(=O)[C@H](CC(C)C)NC(=O)[C@@H]2CCCN2C(=O)CNC(=O)CNC(=O)[C@@H](NC(=O)CN)CSSC[C@@H](C(N)=O)NC(=O)[C@H](CC(C)C)NC(=O)[C@H](CCCCN)NC(=O)[C@H](CCCNC(=N)N)NC(=O)[C@H]([C@@H](C)CC)NC1=O the IC50 was 11200 ± 600 nM (parasite growth; 3D7; 72 h, 5% serum plus Albumax II).
The IC50 of CN(C)CCNC(=O)/C=C/C(Cc1ccccc1)Nc1ccnc2cc(Cl)ccc12 (stereo not shown) is reported as 145 ± 18.6 nM (parasite growth, SYTOX green flow cytometry; K1 chloroquine-resistant; 48 h, ring stage).
With CC1=CC(c2ccc[nH]2)=NC1=CNC12CC3CC(CC(C3)C1)C2 the IC50 was 4.3 nM (parasite growth; 7G8, chloroquine-resistant).
With COc1cc2c3cc1Oc1cc(ccc1O)CC1c4c(cc(OC)c(O)c4Oc4ccc(cc4)CC3N(C)CC2)CCN1C (stereo not shown) the IC50 was under 1000 nM (parasite growth, SYBR Green; blood stage).
CCCCCCCCCCCCCCCCC1CC(=O)NCCCN(C)CCCCN(C)CCCN1C (stereo not shown) gave an IC50 of 0.18 µg/mL (parasite LDH; W2 chloroquine-resistant; 72 h).
With Clc1ccc(C2=CC(c3ccc[nH]3)=NC2=CNC2CCCC2)cc1 the IC50 was 510 nM (parasite growth; 7G8, chloroquine-resistant).
For CC[C@H](C)[C@@H]1NC(=O)[C@H](CCCCN)NC(=O)[C@H](CCCCN)NC(=O)[C@H](Cc2ccc(O)cc2)NC(=O)[C@H](CC(C)C)NC(=O)[C@@H]2CCCN2C(=O)[C@H](C)NC(=O)CNC(=O)CNC(=O)[C@H](CO)NC(=O)CNC(=O)CNC(=O)[C@H](CC(N)=O)NC(=O)[C@H](CCC(=O)O)NC(=O)[C@H](CC(C)C)NC(=O)[C@H](CC(C)C)NC(=O)[C@H](CCCCN)NC(=O)[C@H](CCCCN)NC(=O)[C@H]([C@@H](C)CC)NC(=O)[C@H]([C@@H](C)CC)NC(=O)[C@H](CCCCN)NC(=O)[C@H](CCCCN)NC(=O)[C@H](Cc2ccc(O)cc2)NC(=O)[C@H](CC(C)C)NC(=O)[C@@H]2CCCN2C(=O)[C@H](C)NC(=O)CNC(=O)CNC(=O)[C@H](CO)NC(=O)CNC(=O)CNC(=O)[C@H](CC(N)=O)NC(=O)[C@H](CCC(=O)O)NC(=O)[C@H](CC(C)C)NC(=O)[C@H](CC(C)C)NC(=O)[C@H](CCCCN)NC(=O)[C@H](CCCCN)NC(=O)[C@H]([C@@H](C)CC)NC1=O, the IC50 was 6300 ± 700 nM (parasite growth; 3D7; 72 h, Albumax II medium, no serum).
With COC1=CC(c2ccc[nH]2)=NC1=CNC1CCCC1 the IC50 was 84 nM (parasite growth; Dd2, chloroquine-resistant).
CC[C@H](C)[C@@H]1NC(=O)[C@H](CCCNC(=N)N)NC(=O)[C@H](CCCCN)NC(=O)[C@H](Cc2ccc(O)cc2)NC(=O)[C@H](CC(C)C)NC(=O)[C@@H]2CCCN2C(=O)[C@H](C)NC(=O)CNC(=O)CNC(=O)[C@H](CO)NC(=O)CNC(=O)CNC(=O)[C@H](CO)NC(=O)[C@H](CCC(=O)O)NC(=O)[C@H](CC(C)C)NC(=O)[C@H](CC(C)C)NC(=O)[C@H](CCCCN)NC(=O)[C@H](CCCCN)NC(=O)[C@H]([C@@H](C)CC)NC(=O)[C@H]([C@@H](C)CC)NC(=O)[C@H](CCCNC(=N)N)NC(=O)[C@H](CCCCN)NC(=O)[C@H](Cc2ccc(O)cc2)NC(=O)[C@H](CC(C)C)NC(=O)[C@@H]2CCCN2C(=O)CNC(=O)CNC(=O)[C@@H](NC(=O)CN)CSSC[C@@H](C(N)=O)NC(=O)[C@H](CC(C)C)NC(=O)[C@H](CCCCN)NC(=O)[C@H](CCCCN)NC(=O)[C@H]([C@@H](C)CC)NC1=O has an IC50 of 12300 ± 1000 nM (parasite growth; 3D7; 72 h, 5% serum plus Albumax II).
COC(=O)[C@@H]1Cc2c([nH]c3ccccc23)[C@@H](c2cccnc2)N1 gave an IC50 of 2.12 µg/mL (parasite growth; 48 h, drug-resistant strain, blood stage).
For CCc1c(-c2ccc[nH]2)c[nH]c1C=NC12CC3CC(CC(C3)C1)C2, the IC50 was 1230 nM (parasite growth; Dd2, chloroquine-resistant).
For OCCc1cc(CN(Cc2ccccn2)Cc2ccccn2)c(O)c(CN(Cc2ccccn2)Cc2ccccn2)c1, the IC50 was 290 ± 28 nM (growth, [3H]hypoxanthine incorporation; HB3 chloroquine-sensitive; 48 h).
Cc1[nH]c2ccccc2c1C1CCN(CC2CCC(NC(=O)/C=C/c3ccc(Cl)c(Cl)c3)CC2)CC1 (stereo not shown) gave an IC50 of 45.8 ± 5.11 nM (parasite growth, flow cytometry; 3D7; 72 h).
COc1cccc2c(-c3ccc(O)c4c3CCN=C4)ccc(OC(C)C)c12 has an IC50 of 285 nM (parasite growth, SYBR Green; W2; 96 h, drug-resistant strain, blood stage).
The IC50 of O=C(C=CC(Cc1ccccc1)Nc1ccnc2cc(Cl)ccc12)NCC(=O)N1CCNCC1 (stereo not shown) is reported as 834 nM (parasite growth; K1; drug-resistant strain, blood stage).
COC1=CC(c2ccc[nH]2)=NC1=CNC1CCC1 has an IC50 of 156 nM (parasite growth; 7G8, chloroquine-resistant).
C=CC1CN2CCC1CC2C(OC(=O)NCCCCCCNC(=O)OC(c1ccnc2ccc(OC)cc12)C1CC2CCN1CC2C=C)c1ccnc2ccc(OC)cc12 (stereo not shown) gave an IC50 of 232 ± 31.1 nM (parasite growth; P31, chloroquine-resistant).
The IC50 of CCC1=CC(c2ccc[nH]2)=NC1=CNC12CC3CC(CC(C3)C1)C2 is reported as 16 nM (parasite growth; Dd2, chloroquine-resistant).
For CC[C@H](C)[C@@H]1NC(=O)[C@H](CCCCN)NC(=O)[C@H](CCCCN)NC(=O)[C@H](Cc2ccc(O)cc2)NC(=O)[C@H](CC(C)C)NC(=O)[C@@H]2CCCN2C(=O)[C@H](C)NC(=O)CNC(=O)CNC(=O)[C@H](CO)NC(=O)CNC(=O)CNC(=O)[C@H](CO)NC(=O)[C@H](CCC(=O)O)NC(=O)[C@H](CC(C)C)NC(=O)[C@H](CC(C)C)NC(=O)[C@H](CCCCN)NC(=O)[C@H](CCCCN)NC(=O)[C@H]([C@@H](C)CC)NC(=O)[C@H]([C@@H](C)CC)NC(=O)[C@H](CCCCN)NC(=O)[C@H](CCCCN)NC(=O)[C@H](Cc2ccc(O)cc2)NC(=O)[C@H](CC(C)C)NC(=O)[C@@H]2CCCN2C(=O)[C@H](C)NC(=O)CNC(=O)[C@@H](NC(=O)CN)CSSC[C@@H](C(=O)N[C@@H](CCC(=O)O)C(=O)N[C@@H](CO)C(=O)O)NC(=O)[C@H](CC(C)C)NC(=O)[C@H](CCCCN)NC(=O)[C@H](CCCCN)NC(=O)[C@H]([C@@H](C)CC)NC1=O, the IC50 was 21600 ± 1400 nM (parasite growth; 3D7; 72 h, Albumax II medium, no serum).

A few entries again:
With COc1cc2c3cc1Oc1cc(ccc1O)CC1c4c(cc(OC)c(O)c4Oc4ccc(cc4)CC3N(C)CC2)CCN1C (stereo not shown) the IC50 was under 1000 nM (parasite growth, SYBR Green; blood stage).
COc1cccc2c(-c3ccc(O)c4c3CCN=C4)ccc(OC(C)C)c12 has an IC50 of 285 nM (parasite growth, SYBR Green; W2; 96 h, drug-resistant strain, blood stage).
The IC50 of CCC1=CC(c2ccc[nH]2)=NC1=CNC12CC3CC(CC(C3)C1)C2 is reported as 16 nM (parasite growth; Dd2, chloroquine-resistant).
